Published values gathered from unrelated publications.
Parts stem from different laboratories: compare values within a part only. Changes are numbered by the printed parent chain.

Study 1 — method: protein binding microarray; molecule type: double-stranded DNA, one strand shown; sample: in vitro; tested at: not given; reference: not given; direction: higher = stronger binding; endpoint: E-score
Target: Histone acetyltransferase KAT6A, winged helix 2, GST fusion (KAT6A, Homo sapiens, UniProt Q92794, residues 85-181)
Setting: 8-mer, flanks averaged, mean of 2 arrays, mostly near background
Residues (chain): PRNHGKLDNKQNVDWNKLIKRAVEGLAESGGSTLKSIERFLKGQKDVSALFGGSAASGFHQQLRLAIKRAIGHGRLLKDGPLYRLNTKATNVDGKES
AAGCGAGT: 0.149
CAACTATC: -0.0415
GAACAGTA: 0.0265
GGCGACCC: 0.0357
AAAGACAA: 0.0952
GGGACGTA: -0.107
ATATCGAG: 0.0933
ACAGACCA: 0.135
CCCACGAC: 0.172
AGAAACTG: 0.0707
ACGATTAC: -0.0631
CTGGAGGC: 0.0307
CGCCACAG: 0.107
CGAATCGA: 0.0598
TAAGACTA: -0.262
CCCTCCTC: 0.118
ATAATAGA: -0.085
CATATTGG: -0.0798
GTTACACA: -0.0398
ACGACATC: 0.0533
CGGCCATA: -0.0687
CGGATCGA: 0.151

Study 2 — method: protein-binding microarray; molecule type: double-stranded DNA, one strand shown; sample: in vitro; tested at: 940 nM top; setting: 60-bp whole probe; together with: salmon DNA 0.4 mg/ml; reference: random background probes; direction: higher = stronger binding; endpoint: fitted relative affinity; shared flanks, not repeated: GCCTAGCAC … GTCTTGATTCGCTTGACGCTGCTG
Target: Interferon regulatory factor 5, full length, phosphomimetic (IRF5, Homo sapiens, UniProt Q13568-2, residues 1-514, S451D/S453D/S456D/S462D)
TTAGGTTCCCTTTTCCATTAGTGCTAG: 1.05 z-score
GACGAACCGAGACTGGAGACGTGCTAG: 0.47 z-score
GGTCAGTCAGGTCACTTCTGGTGCTAG: -0.274 z-score
TTTACTAGGAGTTTTCAGTCCGTGCTA: -0.149 z-score
TTAGGACTGCTACTGCTCTAGTGCTAG: -0.334 z-score
GACGAACTGAGTATCGTGACGTGCTAG: 0.181 z-score
TTAGGTTCCGGTTTGGGTTAGTGCTAG: 3.95 z-score
TTAGATCTCAGTTTCGACTAGTGCTAG: 4.76 z-score
TTAGGTCTAGGACTGGGTTAGTGCTAG: -0.356 z-score
CACGGTATCCTTCTCCTGACGTGCTAG: 0.167 z-score
TCAACTCTCTGCTTGTAACTGTGCTAG: 1.59 z-score
TCAAGTTTCACTGCTGCACTGTGCTAG: 5.48 z-score
GACGGTATCCTTATCCTGATGTGCTAG: 0.141 z-score
GAGGGTTTCCTTATCCTGACGTGCTAG: 0.954 z-score
TTAGGTCTCCTACTGCTTTCGTGCTAG: 0.0553 z-score
GACGATATCAGTTGCGAGACGTGCTAG: 0.25 z-score
TCAATTTTGGTTTTCCTACTGTGCTAG: 1.39 z-score
GACGATCTCGGTATCGGGACGTGCTAG: 2.61 z-score
CCACTTTCCATTTCTGTTTTTGTGCTA: 2.55 z-score
TTAGGTCTCGTTATCCTTTAGTGCTAG: 2.35 z-score
TTAGGTTACGGTATCGGTTAGTGCTAG: 4.41 z-score
TTAGGTCTCGGAATGGGTTAGTGCTAG: 2.02 z-score
GACGAACTGGGGACCGGAGACGTGCTA: -0.234 z-score
TCAGCTCACACCTGTCATACTGTGCTA: -0.0305 z-score
TTAGATCTCAGACTGGAATAGTGCTAG: -0.193 z-score

Study 3 — method: RNA Bind-n-Seq; molecule type: RNA; sample: in vitro; tested at: not given; reference: input RNA pool; direction: higher = stronger binding; endpoint: bound/input enrichment
Target: RING finger protein unkempt homolog, zinc fingers 1-6, GST-SBP tag (UNK, Homo sapiens, UniProt Q9C0B0, residues 30-357)
Setting: RNA with constant flanks, human-mouse chimeric sites, ends assumed
Shared flanks, not repeated: GGGAGUUCUACAGUCCGACGAUC … CAACAGAGGAUUGAGCAUCA
Target sequence (chain): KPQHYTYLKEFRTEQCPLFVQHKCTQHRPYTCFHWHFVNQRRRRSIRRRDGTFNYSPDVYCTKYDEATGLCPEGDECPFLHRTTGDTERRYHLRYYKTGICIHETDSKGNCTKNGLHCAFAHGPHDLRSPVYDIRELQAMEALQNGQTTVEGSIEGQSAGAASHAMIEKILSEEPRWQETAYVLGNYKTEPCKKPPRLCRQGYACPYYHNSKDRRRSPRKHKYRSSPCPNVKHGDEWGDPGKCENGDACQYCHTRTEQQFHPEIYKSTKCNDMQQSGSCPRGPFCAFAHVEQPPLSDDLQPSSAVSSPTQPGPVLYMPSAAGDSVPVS
GAAUCCUACUCAGGCGGAUUUUGCAACCUGAAUGCAACAGCAGCAGCAUCUUAGUCACAGUAGGGUAGUUUUGGGGCUCUGUGGCCAGGGUUUUAUUCACAUGCAGGUUUGGAAAAUGUA: 1.15 ratio
UAUAAUAAUCAUGAAAUUCGUUCCGGGAAGCACAUUGGUGUCUGCAUCUCAGUUGCCAACAAUAGGCUUUUUGUGGGCUCUAUUCCUAAGAGUAAAACCAAGGAGCAGAUUCUUGAGGAA: 0.842 ratio
AAGGUGAUGACUAUGUUUGUCCAACGACAGGUAUUUUCGGAGAGCAAAGAUGAGAUUGCGUUAGUCCUCUAUGGCACAGAUGGCACUGAUAAUGCCCUUGCUGGCAAGGACCAGUAUCAG: 0.133 ratio
AUCCCAAUUAUGGACACCGGUGAAAACCCAGAGGUUCCCUUCCCCCGGGACAUGAUUGACUUAGAGGCCAAUUUUGAGAAGAUUGAAAAUGAACUGAAGGAAAUCAACACUAACCAGGAA: 0.286 ratio
GAUAAGAAAAGCUUGUUGGAGACCCGCUUGCACAUCACUGGUAGAGACCUGAGGUGUCAAAUAGCUGAAACCUUUGGAUUUCAAGAAAAUUACAUCAAGAUCGUAAUAAAUAAGAAACAG: 0.271 ratio
UGGCGCCUCCCAUUUUUACUCGUGUUUUUAAGUGUAUUUUUAUAAGAUACAUGUAUUUACAAUUGAGCUUUUGUUACAUAAUGCUGAAAUGCUACUGGAGAUUAUGAAAAAAUGUUAAAU: 0.291 ratio
AUUCCGAUUAUGGACACCGGUGAAAACCCAGAGGUUCCCUUCCCCCGGGACAUGAUUGACUUAGAGGCCAAUUUCGAGAAGAUUGAAAAUGAACUGAAGGAAAUCAACACAAACCAGGAA: 0.0988 ratio
UACUGCUGCUUUCAACUUAAAUCACUGCAUUUUUACUACUGUUCUGUGAGCAUCAGGACUGUAGCGCUGUGUCACCACAUGAGAGUUCAGAAGCAGCCUUUCUGUGGAGGGUGGGAAUGA: 0.214 ratio
GCAGGAUCUUCUAAAUACCAGUGGGACAUUAUGAAAUCCCUUGGGCUCUCUGAUGACGACAUAGUGAAAUUUUCUGAAGCAGAGCACUGGCUUGAUUAUUUCCCACCACUGGCCGUUCAG: 0.261 ratio
AUAAAGGCUAUGUUGAGUGGUCCAGGUCAGUUUGCUGAGAAUGAAACCAAUGAGGUCAAUUUUAGAGAGAUCCCCUCACAUGUGCUAUCAAAAGUGUGCAUGUAUUUUACGUACAAGGUC: 0.208 ratio
UGGGCACUCUAUCAGAUAUAUUAAUUUUUUAAUGUAGAUGUAAUUUUAAAAAUGAAUGGCUACUUUACACGUUUAACUAGGGUUUUACUAUAUAUGUGUACAUAUGUAUAUGUAUUUAUA: 18.8 ratio

Study 4 — method: universal PBM; molecule type: double-stranded DNA, one strand shown; sample: in vitro; tested at: not given; direction: higher = stronger binding; endpoint: E-score
Target: Sal-like protein 4, full length isoform B (SALL4, Homo sapiens, UniProt Q9UJQ4-2, residues 1-616)
Setting: 8-mer, flanks averaged, mean of replicates
Construct (chain): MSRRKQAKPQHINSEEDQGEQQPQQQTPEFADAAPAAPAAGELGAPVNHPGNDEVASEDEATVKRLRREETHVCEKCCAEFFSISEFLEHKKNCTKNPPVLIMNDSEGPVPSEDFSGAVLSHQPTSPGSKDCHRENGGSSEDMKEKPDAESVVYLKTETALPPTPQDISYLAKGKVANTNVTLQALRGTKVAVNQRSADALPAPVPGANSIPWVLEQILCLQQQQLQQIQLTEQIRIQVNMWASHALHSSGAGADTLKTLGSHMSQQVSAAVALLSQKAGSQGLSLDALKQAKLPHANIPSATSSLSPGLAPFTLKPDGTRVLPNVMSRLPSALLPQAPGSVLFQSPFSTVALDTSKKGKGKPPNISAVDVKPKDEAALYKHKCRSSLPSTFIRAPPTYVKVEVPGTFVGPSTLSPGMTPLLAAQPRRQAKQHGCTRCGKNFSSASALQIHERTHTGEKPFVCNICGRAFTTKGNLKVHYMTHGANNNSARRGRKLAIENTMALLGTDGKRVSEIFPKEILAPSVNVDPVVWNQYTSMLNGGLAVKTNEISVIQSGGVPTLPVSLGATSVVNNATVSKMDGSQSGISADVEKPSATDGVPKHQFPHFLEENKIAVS
GTCACCCA: -0.184
CGCGGTTA: -0.135
CATCCGCA: -0.0121
CGGCACGC: -0.222
CCTGCGAC: -0.217
GTGCCCTA: -0.168
CTTACTGC: 0.0345
AGGTACGG: -0.291
ATTAGAGC: 0.195
ATCCAAGA: 0.0222
CCGTGCGC: -0.324
CACGGAAG: -0.194
AGGCACCC: -0.253
CTATACCA: 0.215
AGTCGTCC: -0.232
AACAGCAC: 0.024
ACTGTGGC: -0.212

Study 5 — target: CCND1, cyclin fold, Cln2 fusion (human); method: yeast growth competition, sequencing; sample: yeast; setting: strong parent motif; reference: not given; direction: higher = stronger binding; endpoint: normalised enrichment score
Starting sequence: RBL2 docking peptide (human); STTRRRLFVENDS; partner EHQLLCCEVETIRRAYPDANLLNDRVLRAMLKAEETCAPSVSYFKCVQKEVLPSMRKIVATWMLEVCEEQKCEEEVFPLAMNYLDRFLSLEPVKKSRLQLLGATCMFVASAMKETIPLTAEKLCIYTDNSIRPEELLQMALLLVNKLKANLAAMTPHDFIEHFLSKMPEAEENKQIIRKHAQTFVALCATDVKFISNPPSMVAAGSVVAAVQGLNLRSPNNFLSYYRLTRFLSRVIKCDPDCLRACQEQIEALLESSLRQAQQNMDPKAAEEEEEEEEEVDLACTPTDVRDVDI
STTYRRLFVENDS [R4Y]: 1.18
PTTRRRLFVENDS [S1P]: 0.361
STTRRLLFVENDS [R6L]: 1.37
STTLRRLFVENDS [R4L]: -0.0954
SWTRRRLFVENDS [T2W]: 1.56
STQRRRLFVENDS [T3Q]: -0.376
STTRRRLFTENDS [V9T]: 2.02
STTRRRLFVEVDS [N11V]: 0.626
STTRRRLFLENDS [V9L]: 0.858
STTRRRHFVENDS [L7H]: -0.0692
MTTRRRLFVENDS [S1M]: 0.43
STTRRRLGVENDS [F8G]: 0.0965
STGRRRLFVENDS [T3G]: 0.422
STERRRLFVENDS [T3E]: -0.0321
STTRRRLCVENDS [F8C]: 0.0357
ATTRRRLFVENDS [S1A]: 0.649
STTPRRLFVENDS [R4P]: 1.42
SGTRRRLFVENDS [T2G]: 1.54
STTRRRLFVENDN [S13N]: 0.257
STTRRGLFVENDS [R6G]: -0.056
STTRRRLFVEWDS [N11W]: 0.665
STHRRRLFVENDS [T3H]: -0.337
SNTRRRLFVENDS [T2N]: 1.5
STTRRRLFVMNDS [E10M]: 0.695

A few entries again (study 3):
UAUAAUAAUCAUGAAAUUCGUUCCGGGAAGCACAUUGGUGUCUGCAUCUCAGUUGCCAACAAUAGGCUUUUUGUGGGCUCUAUUCCUAAGAGUAAAACCAAGGAGCAGAUUCUUGAGGAA: 0.842 ratio
AAGGUGAUGACUAUGUUUGUCCAACGACAGGUAUUUUCGGAGAGCAAAGAUGAGAUUGCGUUAGUCCUCUAUGGCACAGAUGGCACUGAUAAUGCCCUUGCUGGCAAGGACCAGUAUCAG: 0.133 ratio
AUCCCAAUUAUGGACACCGGUGAAAACCCAGAGGUUCCCUUCCCCCGGGACAUGAUUGACUUAGAGGCCAAUUUUGAGAAGAUUGAAAAUGAACUGAAGGAAAUCAACACUAACCAGGAA: 0.286 ratio
GAUAAGAAAAGCUUGUUGGAGACCCGCUUGCACAUCACUGGUAGAGACCUGAGGUGUCAAAUAGCUGAAACCUUUGGAUUUCAAGAAAAUUACAUCAAGAUCGUAAUAAAUAAGAAACAG: 0.271 ratio
UGGCGCCUCCCAUUUUUACUCGUGUUUUUAAGUGUAUUUUUAUAAGAUACAUGUAUUUACAAUUGAGCUUUUGUUACAUAAUGCUGAAAUGCUACUGGAGAUUAUGAAAAAAUGUUAAAU: 0.291 ratio
AUUCCGAUUAUGGACACCGGUGAAAACCCAGAGGUUCCCUUCCCCCGGGACAUGAUUGACUUAGAGGCCAAUUUCGAGAAGAUUGAAAAUGAACUGAAGGAAAUCAACACAAACCAGGAA: 0.0988 ratio
UACUGCUGCUUUCAACUUAAAUCACUGCAUUUUUACUACUGUUCUGUGAGCAUCAGGACUGUAGCGCUGUGUCACCACAUGAGAGUUCAGAAGCAGCCUUUCUGUGGAGGGUGGGAAUGA: 0.214 ratio
GCAGGAUCUUCUAAAUACCAGUGGGACAUUAUGAAAUCCCUUGGGCUCUCUGAUGACGACAUAGUGAAAUUUUCUGAAGCAGAGCACUGGCUUGAUUAUUUCCCACCACUGGCCGUUCAG: 0.261 ratio
